{"data": "Results gathered from unrelated publications", "note": "Every numbered part comes from another study and shows a few of its results, in no order. Positions count from the first letter of the parent shown."}
{"data": "Series 1", "target": "Ras GTPase-activating protein-binding protein 1, C-terminal RGG region (G3BP1, Homo sapiens, UniProt Q13283)", "method": "RNA Bind-n-Seq", "form": "RNA", "matrix": "in vitro", "tested at": "1 µM", "setting": "whole 134-nt RNA, ends assumed", "with": "150 mM KCl", "relative to": "input library", "reading": "higher = stronger binding", "all sequences stand within": "GGGAGUUCUACAGUCCGACGAUC … UGGAAUUCUCGGGUGUCAAGG", "UniProt Q13283, sequence (whole entry, looked up)": "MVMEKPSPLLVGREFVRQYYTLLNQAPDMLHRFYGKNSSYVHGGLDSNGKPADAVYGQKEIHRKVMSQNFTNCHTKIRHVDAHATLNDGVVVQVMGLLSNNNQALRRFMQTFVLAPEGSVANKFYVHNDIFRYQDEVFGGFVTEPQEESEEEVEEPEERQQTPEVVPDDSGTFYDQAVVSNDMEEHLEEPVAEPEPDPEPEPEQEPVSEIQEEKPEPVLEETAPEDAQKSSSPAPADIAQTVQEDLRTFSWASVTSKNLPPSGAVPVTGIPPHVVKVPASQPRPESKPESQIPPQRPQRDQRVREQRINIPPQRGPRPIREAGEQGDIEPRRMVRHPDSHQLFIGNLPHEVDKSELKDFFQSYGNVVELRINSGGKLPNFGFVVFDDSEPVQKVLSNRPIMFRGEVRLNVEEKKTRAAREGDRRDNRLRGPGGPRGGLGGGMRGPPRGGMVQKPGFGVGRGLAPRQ"}
{"Sequence": "UGGGAGGUGGAUUUUGUUUCUUUUUUUAGCUCAUUUCCAGGGGUGGGAAUUUUUUUUUAAUAUGUGUCAUGAAUAAAGUUGUUUUUGAAA", "log2 enrichment": 2.01}
{"Sequence": "AGUCCUGUGCUACACAUCGUAUGUACCGAAUCGGGGCCCCGGGCCCCGGGGCCCCGGAAAGUAUUAUGUUACGCCGUUCGGAUCUGCACU", "log2 enrichment": -1.11}
{"Sequence": "CUGUGCUACACAUCGUAUGUACCGAAUCAAACCCCCCCAAAUUUUUUUAAAUUUUUUUAAAAAAGUAUUAUGUUACGCCGUUCGGAUCUG", "log2 enrichment": -1.45}
{"Sequence": "AAGUCCUGUGCUACACAUCGUAUGUACCGAAUCGGGAAAAAGGGUUUUUGGGAGGGAAAGUAUUAUGUUACGCCGUUCGGAUCUGCACUU", "log2 enrichment": 0.885}
{"Sequence": "AAGUCCUGUGCUACACAUCGUAUGUACCGAAUCGGGAGGGUUUUUGGGAAAAAGGGAAAGUAUUAUGUUACGCCGUUCGGAUCUGCACUU", "log2 enrichment": -0.0197}
{"Sequence": "UCCUGUGCUACACAUCGUAUGUACCGAAUCGGGAAAAAGGGGAAAAAGGGGAAAAAGGGAAAGUAUUAUGUUACGCCGUUCGGAUCUGCA", "log2 enrichment": -0.385}
{"Sequence": "UCCUGUGCUACACAUCGUAUGUACCGAAUCGGGUUUGGGAAAAAAAGGGUUUUUUUGGGAAAGUAUUAUGUUACGCCGUUCGGAUCUGCA", "log2 enrichment": -0.175}
{"Sequence": "UAACUAUAGAGGAGGAUCUGAUGGAUAUGGCAGUGGACGUGGAUUUGGGGAUGGCUAUAAUGGGUAUGGAGGAGGACCUGGAGGUGGCAA", "log2 enrichment": -0.76}
{"Sequence": "AGUCCUGUGCUACACAUCGUAUGUACCGAAUCAAACCCAAACCCCCCCAAACCCAAAAAAGUAUUAUGUUACGCCGUUCGGAUCUGCACU", "log2 enrichment": -1.25}
{"Sequence": "CCUCAAGUCCUGUGCUACACAUCGUAUGUACCGAAUCGGCCGGGCCGGCCGGGAAAGUAUUAUGUUACGCCGUUCGGAUCUGCACUUCCA", "log2 enrichment": -1.21}
{"data": "Series 2", "target": "CCNB3, cyclin fold, Cln2 fusion (human)", "method": "yeast growth competition, sequencing", "matrix": "yeast", "setting": "weak parent motif", "relative to": "not given", "reading": "higher = stronger binding", "starting sequence": "MICAL3 docking peptide (human); LQLRRQLSFSEDS; partner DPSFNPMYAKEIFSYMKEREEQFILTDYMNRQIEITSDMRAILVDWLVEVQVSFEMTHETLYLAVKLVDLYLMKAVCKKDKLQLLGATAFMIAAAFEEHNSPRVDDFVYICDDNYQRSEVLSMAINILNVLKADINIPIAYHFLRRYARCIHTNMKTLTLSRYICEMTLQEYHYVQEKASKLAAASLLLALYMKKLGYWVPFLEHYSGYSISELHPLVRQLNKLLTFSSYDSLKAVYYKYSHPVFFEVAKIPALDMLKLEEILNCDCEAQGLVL"}
{"Substitution": "LQLRRSLSFSEDS [Q6S]", "normalised enrichment score": 0.408}
{"Substitution": "LQLRRQLSFSENS [D12N]", "normalised enrichment score": 0.598}
{"Substitution": "LQLRRQLSCSEDS [F9C]", "normalised enrichment score": 0.0378}
{"Substitution": "LQLRRQLSFSESS [D12S]", "normalised enrichment score": 0.0343}
{"Substitution": "LQLRRQLCFSEDS [S8C]", "normalised enrichment score": 0.189}
{"Substitution": "LQGRRQLSFSEDS [L3G]", "normalised enrichment score": 0.367}
{"Substitution": "LQTRRQLSFSEDS [L3T]", "normalised enrichment score": 0.268}
{"Substitution": "LQLNRQLSFSEDS [R4N]", "normalised enrichment score": -0.0313}
{"Substitution": "LQLRRQLSFSPDS [E11P]", "normalised enrichment score": 0.625}
{"Substitution": "LQLRAQLSFSEDS [R5A]", "normalised enrichment score": -0.0966}
{"Substitution": "LQLRRQSSFSEDS [L7S]", "normalised enrichment score": -0.185}
{"Substitution": "LQLRRQLYFSEDS [S8Y]", "normalised enrichment score": 0.0923}
{"Substitution": "LQLRRQLWFSEDS [S8W]", "normalised enrichment score": 0.064}
{"Substitution": "LQLRRQLSLSEDS [F9L]", "normalised enrichment score": -0.396}
{"Substitution": "LQLRRDLSFSEDS [Q6D]", "normalised enrichment score": -0.0704}
{"Substitution": "LQLRRQLSFSEES [D12E]", "normalised enrichment score": 0.153}
{"Substitution": "LQLRRQLSFSERS [D12R]", "normalised enrichment score": 0.282}
{"Substitution": "LQLRRQLSFSYDS [E11Y]", "normalised enrichment score": 0.209}
{"Substitution": "LMLRRQLSFSEDS [Q2M]", "normalised enrichment score": 0.108}
{"Substitution": "LQLGRQLSFSEDS [R4G]", "normalised enrichment score": 0.156}
{"Substitution": "LQLRRALSFSEDS [Q6A]", "normalised enrichment score": 0.126}
{"Substitution": "LQLRRQLRFSEDS [S8R]", "normalised enrichment score": -0.00429}
{"Substitution": "LQLRRQLEFSEDS [S8E]", "normalised enrichment score": -0.0902}
{"Substitution": "LQLCRQLSFSEDS [R4C]", "normalised enrichment score": -0.0162}
{"data": "Series 3", "target": "RNA binding protein fox-1 homolog 2, RRM domain, GST-SBP tag (RBFOX2, Homo sapiens, UniProt O43251-10, residues 100-194)", "method": "RNA Bind-n-Seq", "form": "RNA", "matrix": "in vitro", "tested at": "365 nM", "setting": "natural RNA segment, single round, ends assumed", "relative to": "no-protein control", "reading": "higher = stronger binding", "all sequences stand within": "GGGAGUUCUACAGUCCGACGAUC … UGGAAUUCUCGGGUGCCAA", "Target sequence (chain)": "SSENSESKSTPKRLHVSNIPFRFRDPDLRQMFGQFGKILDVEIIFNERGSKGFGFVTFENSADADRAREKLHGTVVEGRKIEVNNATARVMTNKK"}
{"Sequence": "UAUCCAGUGCUUGCCCUCGGAGUGUCUUUAAAUGCACCAAGUGUACAAUAAAAACAUGGAAGUCAAUCCUAGGAGCCUCUUGUUUGUGUCUCAUGGACACAGUCGGCACC", "RBNS enrichment (R)": 0.294}
{"Sequence": "UAGUCUUACUGAGCUUAUGCUUCACUCCUUUAUGUUUAACCAUGUGUCUACAAGAAUAAGUUUGUUUUGGAAAGUUGAGCUAUAGCUACAGCUCUAGCUAUCCAGCAGAC", "RBNS enrichment (R)": 0.382}
{"Sequence": "AGUGAGCUUCCCUGUGCCCACUCAGUGAACUAAGUCUGACCAUCCUUCAGGGACGUUCCUUUUGGUAAAUAUACACUGUAAUCUUUAAGUCUAAAUUUAUAUGUGAAAGU", "RBNS enrichment (R)": 0.358}
{"Sequence": "UGAGGGCCACCAAUGGAAGAGCCCGCCCUUCAUUCUGCAGCUCCUGCGGCCAGGCUGAGCUCUGCCCCCAACUUUGUUUUCUCUCAUGUUCUCAAUACACUCUGCCUCAA", "RBNS enrichment (R)": 0.697}
{"Sequence": "GCUUUACUAUGGAGCCUGCAUAUGAAGCCACCUCUGGCUUCUACAGAAGGAGGCCCUGGCUGCUCCAGCUUGGGUGGAGCCUACUGAAAUGUGGAAACUGUGUAUCUUAU", "RBNS enrichment (R)": 0.335}
{"Sequence": "UCUUAGGUCUAAACUAUGGUGUCAGUUUUAAUAGAACAAAAGUAUGCAUCUUGCCUUGGCUUGAGCCUUUUCGUUUUCAAUGCUGACUUCUCCCCUUUCUCUCCUGUGCU", "RBNS enrichment (R)": 0.75}
{"Sequence": "AAGCAGGUCCAGGCGUUUCUAGAACCCUAGGGUGCACCAUCACUGUCUUUUCAGUGCAGGCUGUAACAACCCACUCAGGAGACAGUGAGAGUGAAAAGGUAUUAAGGAAA", "RBNS enrichment (R)": 0.305}
{"Sequence": "AACUUCCAUACAUUAGGUAACGUCUUAUAAUGUAAGGACAUGGUAUCCACUGCCCUAAAGAUUUAGACAUCCAUCACAGACUCUGCAGUGGUGUUUCUACUCCAGUGAGG", "RBNS enrichment (R)": 0.348}
{"Sequence": "ACAUGGAAAAUUCAAGGAUUGUUUAAAGGUCUGAUGAUCACACACAAAAUGUAAUUCCGGUUAUUUAAGUCAUUUCUGUGAUUCUAUCAUGUACAGUUUCCAGAAUUGUC", "RBNS enrichment (R)": 0.388}
{"Sequence": "AAACAUUGUCCCUGCCCCCGGGGGCUCACAUGCCACUGGAAACAACAGACUCUUAAACUAACAAUUCAAGCAGGCGCCAAGUGCUAUGACAGAGGUGUGAAUAAAAGCAU", "RBNS enrichment (R)": 0.301}
{"Sequence": "GACUCUCUGAGGCUUCUUGUUAAAAUGGUUGCCUUUGUUUCUCAGUGAUAGCGAUACAGCUCAGGAAUGGACUAUGGAAACUGAUACCUAGCGACAUUAGCUGAGAACAC", "RBNS enrichment (R)": 0.937}
{"Sequence": "AUUUUUAUUUUUGUUCGAAGCAUGAUCUUAAAGCUAUGUUUAAGUUAAUGGAUGUAAUGCAGGGUUCCUACACUGUAUUGGCGCAUGUUGGUGGCCCUCUGUGCCCUAAG", "RBNS enrichment (R)": 25.2}
{"data": "Series 4", "target": "Histone acetyltransferase KAT6A, both winged helices, GST fusion (KAT6A, Homo sapiens, UniProt Q92794, residues 1-181)", "method": "protein binding microarray", "form": "double-stranded DNA, one strand shown", "matrix": "in vitro", "tested at": "not given", "setting": "8-mer, flanks averaged, mean of 2 arrays, mostly near background", "relative to": "not given", "reading": "higher = stronger binding", "Target sequence (chain)": "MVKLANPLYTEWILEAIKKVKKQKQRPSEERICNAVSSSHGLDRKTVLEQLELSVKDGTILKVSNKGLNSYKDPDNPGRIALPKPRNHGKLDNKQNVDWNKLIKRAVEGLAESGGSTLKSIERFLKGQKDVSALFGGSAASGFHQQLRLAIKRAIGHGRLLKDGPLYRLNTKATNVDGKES"}
{"Sequence": "GGTCAGGA", "E-score": -0.0412}
{"Sequence": "AGAATACG", "E-score": 0.0533}
{"Sequence": "GCTCCGCA", "E-score": 0.0852}
{"Sequence": "AGCTTAGC", "E-score": -0.0532}
{"Sequence": "CCGTGACA", "E-score": 0.239}
{"Sequence": "CTTAGTTC", "E-score": -0.0475}
{"Sequence": "AAGCATAG", "E-score": -0.2}
{"Sequence": "CAACCTAA", "E-score": -0.188}
{"Sequence": "GAATTGAA", "E-score": -0.0636}
{"Sequence": "CGGATCTA", "E-score": 0.0504}
{"Sequence": "ACCAGGCA", "E-score": -0.311}
{"Sequence": "AGCTTCTC", "E-score": -0.107}
{"Sequence": "ACACACAG", "E-score": -0.136}
{"Sequence": "CTCGACAG", "E-score": -0.0973}
{"Sequence": "GACACATC", "E-score": -0.11}
{"Sequence": "CGTCGGGA", "E-score": 0.294}
{"Sequence": "GTATGAAA", "E-score": -0.0162}
{"Sequence": "AGTCTCGA", "E-score": -0.115}
{"Sequence": "ATCGACGC", "E-score": 0.195}
{"Sequence": "AGTTGCGA", "E-score": -0.0788}
{"Sequence": "GAAAGTGA", "E-score": -0.22}
{"Sequence": "CCGCGGAC", "E-score": 0.316}
{"Sequence": "ACGCAACG", "E-score": 0.175}
{"Sequence": "AACGTCCG", "E-score": 0.161}
{"Sequence": "AGCGAGTA", "E-score": 0.0734}
{"note": "Excerpt of the above (series 4):"}
{"Sequence": "GGTCAGGA", "E-score": -0.0412}
{"Sequence": "AGAATACG", "E-score": 0.0533}
{"Sequence": "GCTCCGCA", "E-score": 0.0852}
{"Sequence": "AGCTTAGC", "E-score": -0.0532}
{"Sequence": "CCGTGACA", "E-score": 0.239}
